Measurements gathered from unrelated publications.
Each numbered part is a random draw from the data of one study; scales do not carry over between parts. Substitutions count along the parent as printed.

Block 1 — method: DHFR PCA, deep sequencing; medium: yeast; with: (+)-ABA 0.0091 µM; relative to: wild-type fitted maximum; reading: higher = stronger binding
Target: ABI1, truncated, D143A, DHFR fusion (Arabidopsis thaliana)
Setting: methotrexate growth selection, single substitutions
Parent: PYL1, truncated, DHFR fusion (Arabidopsis thaliana); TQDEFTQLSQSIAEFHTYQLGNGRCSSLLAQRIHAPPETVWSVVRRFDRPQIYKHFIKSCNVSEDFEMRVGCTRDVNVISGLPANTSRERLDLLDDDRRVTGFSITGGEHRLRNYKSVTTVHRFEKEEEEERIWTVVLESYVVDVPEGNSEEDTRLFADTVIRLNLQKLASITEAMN; partner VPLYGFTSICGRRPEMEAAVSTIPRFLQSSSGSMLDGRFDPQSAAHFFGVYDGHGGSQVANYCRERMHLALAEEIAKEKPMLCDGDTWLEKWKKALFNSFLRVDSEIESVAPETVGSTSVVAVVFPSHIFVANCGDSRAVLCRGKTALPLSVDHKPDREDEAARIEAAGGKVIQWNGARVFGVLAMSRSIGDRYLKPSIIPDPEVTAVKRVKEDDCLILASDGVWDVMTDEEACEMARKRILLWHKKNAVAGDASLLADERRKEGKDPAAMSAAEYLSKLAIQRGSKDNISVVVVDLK
| Variant | relative binding score |
| --- | --- |
| G108S | -7.29% |
| S42P | -1.18% |
| I162Y | -8% |
| D159E | 4.07% |
| T86P | 5.67% |
| P146Y | -0.535% |
| G108Y | -4.72% |
| G23W | -1.59% |
| V142K | -0.414% |
| R45P | -0.37% |
| R24C | 21.2% |
| R111V | 14.6% |
| K168E | -3.88% |
| L91Q | -8.62% |
| N114S | 2.58% |
| V161A | 3.88% |

Block 2 — method: RNA Bind-n-Seq; molecule type: RNA; medium: in vitro; tested at: not given; relative to: input RNA pool; reading: higher = stronger binding
Target: RING finger protein unkempt homolog, zinc fingers 1-6, GST-SBP tag (UNK, Homo sapiens, UniProt Q9C0B0, residues 30-357)
Setting: RNA with constant flanks, human and mouse sites, ends assumed
Shared flanks, not repeated: GGGAGUUCUACAGUCCGACGAUC … CAACAGAGGAUUGAGCAUCA
Construct (chain): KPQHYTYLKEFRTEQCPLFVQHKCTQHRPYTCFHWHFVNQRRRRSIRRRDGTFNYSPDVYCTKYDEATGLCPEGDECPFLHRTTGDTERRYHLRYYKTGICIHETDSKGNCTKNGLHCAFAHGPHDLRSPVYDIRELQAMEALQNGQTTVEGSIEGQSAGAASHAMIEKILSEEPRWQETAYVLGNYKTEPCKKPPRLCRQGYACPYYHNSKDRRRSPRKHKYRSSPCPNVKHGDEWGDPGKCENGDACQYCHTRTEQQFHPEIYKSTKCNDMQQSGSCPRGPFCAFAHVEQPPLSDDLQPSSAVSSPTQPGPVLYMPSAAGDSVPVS
| Strand | bound/input enrichment |
| --- | --- |
| AUUAAUGAGGGCCUUAAAGCGGCUGACAAUGACCCCACAGCUCCACCAUAUGACUCCCUGUUAGUGUUUGACUAUGAAGGCAGUGGCUCCACUGCUGGGUCCUUGAGCUCCCUUAAUUCC | 1.34 ratio |
| UAUAAUUUCAUACAGGAUUCAAUGUUGGAUUUUGAAAAUCAGACGCUUGAUCCUGCCAUUGUAUCCGCACAGCCUAUGAACCCUACCCAGAACAUGGAUAUGCCUCAGCUGGUUUGCCCU | 0.191 ratio |
| GCCGCCCAGGCAGGAGCAUCAGCCAGCGAUACCUGGAGUCUGCAGAAACCUCGCCCGCACUUUGCAACAAAGGCAGCCAGCUAGUCAGCGAGGACCUCUGCAAGCCAAAAAAUGUCGUCC | 0.0853 ratio |
| AUCUGUAUUAUCCAUGAAUUCAGUAACCCUCCCAAUGUCCGGAAUAAGGUGCGCAUUCGCAGCUGGAUGGACACUAUAGCAAACAUCAAUCAAGAGCUCAUUAAAUAUGAAUUCUUCCCU | 1.05 ratio |
| CUGAAGGCUCUAGAGAGGCUUGAGGGUGUGGAGGGCGUGGCCCACAUAAUUGACCCCAAGGCCAUCAGCAAAGACCACCUCUACGGAACCUUGGAUCCCAACACCAGGGAGUGGACAGAC | 0.174 ratio |
| ACGCUGCCGCUGCUGAGGCAGACCUCCACCAAGGCAGUCCAGCACUUCUACAACAUCAAACUCGAAGGCAAAGUGCCCAUGCACAAACUUUUUUUGGAAAUGCUGGAGGCCAAGGUCUGA | 0.0827 ratio |
| GUCCAGCGUAAGAGGGAGCUGUGGCCAAGAGAGAAGGAGGGUCAGCGCCAGGAGCUAGAAGAAUUUAAGCAGAAGAUCCGGAAGCAGAAAGAAGAGAGACUUCUUCAAGCUGCCCAGCAG | 0.521 ratio |
| GUUUCUCCAGAGGAAGCAAUCAAAUGUGAAGACAAAUUCACAAAAUCCAAAACUGUUUAUAGCAUUCUUCGUCAUGUUGCUGAGGUGUUAGAAUACACCAAGGAUGAGCAGCUGGAAAGC | 0.151 ratio |

Block 3 — method: protein binding microarray; molecule type: double-stranded DNA, one strand shown; medium: in vitro; tested at: not given; relative to: not given; reading: higher = stronger binding
Target: Histone acetyltransferase KAT6A, winged helix 2, GST fusion (KAT6A, Homo sapiens, UniProt Q92794, residues 85-181)
Setting: 8-mer, flanks averaged, mean of 2 arrays, mostly near background
Target sequence (chain): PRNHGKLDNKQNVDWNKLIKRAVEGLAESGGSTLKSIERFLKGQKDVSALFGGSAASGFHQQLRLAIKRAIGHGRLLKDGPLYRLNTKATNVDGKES
| Strand | E-score |
| --- | --- |
| AAACGGGG | 0.0345 |
| ACTACGAG | -0.0966 |
| GTTTTGGA | 0.127 |
| GGGGCGCA | -0.037 |
| CGCGCCAG | 0.253 |
| CACGACAC | -0.0391 |
| ATGGACAG | -0.0885 |
| CCCTGATA | -0.199 |
| AGTCGTTC | -0.0631 |
| CTGGAAAA | 0.0435 |
| AGAAAACG | 0.0723 |
| ATGATTTG | -0.101 |
| ACGTGACC | -0.308 |
| ACTGTTAG | -0.173 |
| AATATGGG | 0.0377 |
| CGCTGCCC | 0.175 |

Block 4 — target: CCNE2, cyclin fold, Cln2 fusion (human); method: yeast growth competition, sequencing; medium: yeast; setting: weak parent motif; relative to: not given; reading: higher = stronger binding
Parent: DNAH7 docking peptide (human); HELFQRLDFDNDG; partner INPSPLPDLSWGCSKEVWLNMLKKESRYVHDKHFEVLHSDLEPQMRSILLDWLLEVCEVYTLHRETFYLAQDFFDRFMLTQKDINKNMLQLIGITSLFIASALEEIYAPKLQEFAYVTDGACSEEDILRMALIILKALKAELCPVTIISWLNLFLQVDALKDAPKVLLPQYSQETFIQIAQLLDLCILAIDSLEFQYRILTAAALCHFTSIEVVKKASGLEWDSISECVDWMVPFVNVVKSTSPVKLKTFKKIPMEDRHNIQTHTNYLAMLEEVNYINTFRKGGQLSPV
| Variant | normalised enrichment score |
| --- | --- |
| E2A | -0.326 |
| G13A | -0.503 |
| L3A | -0.304 |
| F4A | -0.121 |
| N11A | -0.0891 |
| D8A | -0.0231 |
| D12A | -0.246 |

Block 5 — target: BATF3, bZIP domain (human); method: DHFR protein complementation; medium: yeast; relative to: wild-type JUN-FOS pair; reading: higher = stronger binding
Setting: single substitutions, most at no-binding floor
Parent: JUN, bZIP domain (human); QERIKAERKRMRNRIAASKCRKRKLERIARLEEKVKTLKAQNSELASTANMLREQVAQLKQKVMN; partner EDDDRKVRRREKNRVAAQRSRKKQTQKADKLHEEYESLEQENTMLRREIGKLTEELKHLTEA
| Variant | binding fitness |
| --- | --- |
| T48L | 0.18 natural log |
| E32P | 0.151 natural log |
| I28P | 0.305 natural log |
| K36T | 0.153 natural log |
| V35P | -1.05 natural log |
| E32H | 0.147 natural log |
| M51E | 0.228 natural log |
| S43W | 0.148 natural log |
| V56H | -0.2 natural log |
| V56W | -0.049 natural log |
| L31N | 0.123 natural log |
| N42H | 0.128 natural log |
| A49W | 0.133 natural log |
| S43F | 0.161 natural log |
| R53P | -1.11 natural log |
| A57W | 0.147 natural log |
| Q41E | 0.207 natural log |
| A29R | 0.13 natural log |
| L38M | 0.216 natural log |
| V35I | 0.223 natural log |

Further values, each from its own experiment
| Substance | target | assay | test system | setting | how to read | quantity | result |
| --- | --- | --- | --- | --- | --- | --- | --- |
| PhoQ, residues 284 288 289 292 302 303 SLGVVW | PhoP, residues 12 14 15 18 19 NMSSL (Escherichia coli, UniProt P23836) | Sort-seq, item: YFP reporter | E. coli | PhoQ-PhoP variant library, with: 10 µM Mg2+ | relative to: high Mg2+ state, higher = stronger signaling | fold induction | 21.8 |

A few entries again (block 5):
| Variant | binding fitness |
| --- | --- |
| S43W | 0.148 natural log |
| E32H | 0.147 natural log |
| V35I | 0.223 natural log |
| I28P | 0.305 natural log |
| N42H | 0.128 natural log |
| V56H | -0.2 natural log |
| T48L | 0.18 natural log |
| S43F | 0.161 natural log |
| V35P | -1.05 natural log |
| Q41E | 0.207 natural log |
